Measured values pooled from the literature.
Protocols differ between the studies behind these lines. ± gives the spread as reported.

Compound	assay	test system	conditions	how to read	measurement	value
CCCC[C@@H]1NC(=O)[C@H](Cc2ccc(O)cc2)NC(=O)[C@@H]2CCCN2C(=O)[C@H](CC(=O)O)NC(=O)[C@H](C)NC(=O)[C@H](Cc2ccccc2)NC(=O)[C@@H]2CSCCC(=O)N3CN(CN(C3)C(=O)CCSC[C@@H](C(=O)N[C@@H](C)C(N)=O)NC1=O)C(=O)CCSC[C@H](NC(C)=O)C(=O)N[C@@H](CC(C)(C)C)C(=O)N1CCC[C@H]1C(=O)N[C@@H](CCC(=O)O)C(=O)N[C@H](CCCCNC(=O)CCc1cn(CCOCCOCCOCCN(CCOCCOCCOCCC(=O)N[C@H]3CSCCC(=O)N4CN5CN(C4)C(=O)CCSC[C@H](NC(=O)[C@@H](CC(=O)O)NC(=O)[C@H](Cc4cccc6ccccc46)NC(=O)[C@@H]4CCCN4C3=O)C(=O)N[C@@H](CCSC)C(=O)N[C@@H](CCCCNC(=N)N)C(=O)N[C@@H](CC(=O)O)C(=O)N[C@@H](Cc3c[nH]c4ccccc34)C(=O)N[C@@H](CO)C(=O)N[C@@H]([C@@H](C)O)C(=O)N3CCC[C@H]3C(=O)N3C[C@H](O)C[C@H]3C(=O)N[C@@H](Cc3c[nH]c4ccccc34)C(=O)N[C@H](C(N)=O)CSCCC5=O)CCOCCOCCOCCn3cc(CCC(=O)NCCCC[C@H]4NC(=O)[C@H](CCC(=O)O)NC(=O)[C@@H]5CCCN5C(=O)[C@H](CC(C)(C)C)NC(=O)[C@@H](NC(C)=O)CSCCC(=O)N5CN6CN(C5)C(=O)CCSC[C@H](NC(=O)[C@H](Cc5ccc(O)cc5)NC(=O)[C@@H]5CCCN5C4=O)C(=O)N[C@@H](Cc4ccccc4)C(=O)N[C@@H](C)C(=O)N[C@@H](CC(=O)O)C(=O)N4CCC[C@H]4C(=O)N[C@@H](Cc4ccc(O)cc4)C(=O)N[C@@H](CCCC)C(=O)N[C@H](C(=O)N[C@@H](C)C(N)=O)CSCCC6=O)nn3)nn1)C(=O)N1CCC[C@H]1C(=O)N[C@@H](Cc1ccc(O)cc1)C(=O)N2	–	cynomolgus monkey, plasma	intravenous, infusion	–	half-life	6.7 h
Cc1[nH]c(/C=C2\C(=O)Nc3ccc(F)cc32)c(C)c1NC(=O)CCN1CCN(C)CC1	–	dog plasma	1.00 ng/mL, 24 h at room temperature after processing, 25 °C	–	accuracy deviation	0.15%
CCN(CC)C(=O)c1ccc(-c2cc(NCCCN3CCCCC3)c3ccccc3n2)cc1	–	C57BL/6 mice, male, serum	oral, 0.05% w/w in chow, 5 days	–	serum concentration	> 3000 nM
COc1cc(-c2nc3ccccc3s2)cc(CN2CCN(CC(=O)OC(C)C)CCN(CC(=O)OC(C)C)CC2)c1O	UV-Vis pH titration	–	25 °C, ionic strength 0.1 M NaCl	–	pKa2	6.48
Cn1c(=O)oc2ccc(-c3ccc(CC(C#N)NC(=O)C4CNCCCO4)c(F)c3)cc21 (centres unmarked)	item: blood triglycerides increased	human	80 mg, treatment-related, single dose, fasted	–	subjects with adverse event	0%
CC(C)[C@H](NC(=O)[C@@H]1CCCN1C(=O)[C@H](CCCNC(=N)N)NC(=O)[C@H](CS)NC(=O)[C@H](Cc1c[nH]c2ccccc12)NC(=O)[C@H](CCCNC(=N)N)NC(=O)[C@@H](Cc1ccccc1)NC(=O)[C@H](Cc1c[nH]cn1)NC(=O)[C@H](CCC(=O)O)NC(=O)[C@H](CS)NC(=O)[C@H](CS)NC(=O)CNC(=O)[C@@H]1CC(=O)N[C@@H](CCCNC(=N)N)C(=O)NCC(=O)N[C@@H](CC(=O)O)C(=O)N[C@H](Cc2ccc(O)cc2)C(=O)N1)C(N)=O [technetium-99m labelled]	–	C57 mouse, female, B16/F1 melanoma, brain	intravenous, 0.037 MBq, 24 h	–	tissue uptake	0.05 ± 0.02 %ID/g
COc1cc2c(cc1OC)CN(CCCCn1ccc3cc(OCC[18F])ccc31)C2	–	male CD-1 mouse, bone	intravenous, 280 kBq, 30 min	–	tracer uptake	5.11 %ID/g
NCCCC(=O)OCC(=O)c1ccc(O)c(C(F)(F)F)c1.O=C(O)C(F)(F)F	photolysis, item: disappearance of compound	unbuffered water	–	–	quantum yield	0.17
CCCC1OC2CC3C4CCC5=CC(=O)C=CC5(C)C4C(O)CC3(C)C2(C(=O)COC(=O)CN)O1 (centres unmarked)	–	diluted rat plasma	200 µg/mL, 37 °C, 5.7-fold dilution, 2% DMSO	–	time to rapid hydrolysis	≤ 6 h
CCNC(=O)c1noc(-c2cc(C(C)C)c(O)cc2O)c1NC(=O)CCN1CCOCC1	–	CD1 nude mice, A-431 xenograft, plasma	intraperitoneal, 80 mg/kg	–	apparent volume of distribution	94.6 L/kg
CC(C)[C@H](NC(=O)CNC(=O)[C@H](CCC(N)=O)NC(=O)[C@H](C)N)C(=O)O	LC-MS/MS	human, plasma	intravenous, 20 mg/kg three times daily, day 2, first dose, 10 min infusion, geometric mean	–	AUC(0-inf)	393 ng·h/mL
NC[C@@H](C(=O)Nc1ccc(-c2cn[nH]c2)cc1)c1ccccc1	OECD 405 eye irritation	New Zealand White rabbit, eye	topical, 0.1%, 8 h (day 1), scale 0 to 3	direction not given	conjunctival redness score	0
N=C(N)NCCC[C@@H]1NC(=O)[C@H](CCCNC(=N)N)NC(=O)[C@H](CCCNC(=N)N)NC(=O)[C@H](CCCNC(=N)N)NC(=O)[C@H](Cc2c[nH]c3ccccc23)NC(=O)[C@H](CCCNC(=N)N)NC(=O)[C@H](CCCNC(=N)N)NC(=O)[C@@H](N)CSSC[C@@H](C(N)=O)NC1=O	HPLC	PBS	concentration not given, pH 7.4, room temperature, with: GSH 4 mM	–	time to near-complete reduction	≤ 1 min
C/C(=N\OCCCN1CCOCC1)c1ccc(C(F)(F)F)cc1	–	liver microsomes	–	baseline: human over mouse	metabolic stability ratio	~3 fold
CC(C)c1cnc(-c2cc(Cl)ccc2F)cc1Nc1ccncc1C(=O)NC(CO)CO	item: hypotension	human patients	oral, dose not given, grade 1	–	patients with related SAE	0%
CN1CCC[C@]1(C)/C=C/S(=O)(=O)NC(=O)Nc1c2c(cc3c1CCC3)CCC2	–	human, urine	oral, 100 mg single dose	–	percent of dose in urine	76.6%
NCCCC(=O)OCC(=O)c1ccc(O)c(OC(F)(F)F)c1.O=C(O)C(F)(F)F	photolysis, item: disappearance of compound	aqueous HEPES buffer with LiClO4	pH 8.2	–	quantum yield	0.02
CCCC(CCC)NC(=O)c1ccc(O)c(O)c1	–	female Sprague-Dawley rats, plasma	oral, 200 mg/kg of parent drug	baseline: 200 over 20 mg/kg dose	Cmax ratio	12.1
[2H]C([2H])([2H])NC(=O)c1ccc(N2C(=S)N(c3ccc(C#N)c(C(F)(F)F)c3)C(=O)C2(C)C)cc1F	–	male human, plasma	oral, 160 mg, single dose, fasted	–	MRT	222 h
Cc1ccccc1/N=N/c1ccc(/N=N/c2c(O)ccc3ccccc23)c(C)c1	–	rat whole blood extract	0.5 µg/L, 30 days, -20 °C, long-term storage	–	stability deviation	0.6%
NCC(=O)N1CCC[C@H]1C(=O)N1C[C@H](O)C[C@H]1C(=O)O	potentiometric titration	–	25 °C, MAH-3 complex, with: Fe(III)	–	log beta	-2.23

Compound	assay	test system	conditions	how to read	measurement	value
CC(C)(O)c1ncc([S@](N)(=O)=NC(=O)Nc2c3c(cc4c2CCC4)CCC3)s1	–	healthy human	oral, 30 mg once daily, day 1, capsule formulation, geometric mean	–	AUC(0-tau)	24800 ng·h/mL
COC(=O)Cn1c(=O)c(Cc2ccccc2)nc2ccccc21	MTT	rat primary colonocytes, Albino rat, male	72 h, concentration at 100% viability	–	safe concentration	0.08 ± 0.003 µM
COC(=O)c1ccc(-c2cn(Cc3cc(Cl)ccc3O[11CH3])nn2)cc1	PET, Logan plot	rhesus monkey, thalamus	dose not given, 40 min	–	volume of distribution	0.543 mL/cm³
N[C@H](COc1ccccc1C(F)(F)F)c1ccccc1	–	male Sprague-Dawley rat, serum	oral, 25 mg/kg	–	Cmax	226 ± 15 ng/mL
CC[C@@H](C)N([11CH3])C(=O)c1nc(-c2ccccc2Cl)c2ccccc2n1	ultrafiltration	rhesus monkey, plasma	TSPO preblock scan	–	plasma free fraction	0.116 ± 0.003
CC1=CC(C)=[N+]2C1=Cc1ccc(CCC(=O)N3CCN(C(=O)c4cc(Cc5n[nH]c(=O)c6ccccc56)ccc4F)CC3)n1[B-]2(F)F	ex vivo imaging	athymic nude NU/J mice, U87 or U-251 xenograft, brain	intravenous, 2.5 mg/kg, 90 min	–	mean fluorescence	0.13 AU/pixel
CC[C@H](C)[C@H](NC(=O)[C@H](CC(C)C)NC(=O)[C@H](Cc1c[nH]c2ccccc12)NC(=O)[C@H](C)NC(=O)[C@@H](NC(=O)[C@H](Cc1ccccc1)NC(=O)[C@H](CC(=O)O)NC(=O)[C@H](CCCNC(=N)N)NC(=O)[C@H](C)NC(=O)[C@H](C)NC(=O)[C@H](CC(C)C)NC(=O)[C@H](C)NC(=O)[C@H](CC(=O)O)NC(=O)[C@H](CC(C)C)NC(=O)[C@@H](NC(=O)[C@@H](NC(=O)[C@H](C)NC(=O)[C@H](CC(C)C)NC(=O)[C@H](CCC(=O)O)NC(=O)[C@H](CO)NC(=O)[C@H](CO)NC(=O)[C@H](Cc1ccccc1)NC(=O)[C@@H](NC(=O)CNC(=O)[C@H](CCC(=O)O)NC(=O)CNC(=O)[C@@H](N)Cc1c[nH]cn1)[C@@H](C)O)[C@@H](C)O)[C@@H](C)CC)[C@@H](C)CC)C(=O)N[C@@H](C)C(=O)N[C@H](C(=O)N[C@@H](CCCCN)C(=O)N[C@H](C(=O)N[C@H](C(=O)N[C@@H](CC(=O)O)C(=O)N[C@@H](CCCCN)C(=O)N[C@@H](CCCCN)C(=O)O)[C@@H](C)O)[C@@H](C)CC)[C@@H](C)O	immunoaffinity LC-MS/MS	healthy human subjects, plasma	intravenous infusion, 1 mg single dose, infused over 15 min	–	terminal half-life	1.2 h
[11CH3]c1ccc2nc(C3CCC3)n(-c3ccc4[nH]ncc4c3)c2n1	extrapolated from mouse biodistribution	human female, drain	–	–	absorbed dose	1.2 µSv/MBq
CC/C=C\C/C=C\C/C=C\C/C=C\C/C=C\CCCCOC(CC)C(=O)O (centres unmarked)	[14C] label	male Wistar rat, kidney medulla	oral, 100 mg/kg, 8 h	–	radioactivity concentration	76.6 µg equiv/g
COc1cc(NC(C)=O)c2c(c1O)-c1c(OC)c(OC)cc3c1C(C2)N(C)CC3 (centres unmarked)	–	rat liver homogenate	100 µg/mL, 24 h, room temperature, post-preparative storage	–	remaining compound	95.7 ± 1.4%
Oc1cccc(-c2cccc(O)n2)n1.[Cl-].[Cl-].[Ru+2].c1cnc2c(c1)ccc1cccnc12.c1cnc2c(c1)ccc1cccnc12	shake flask	octanol/acetate buffer	pH 5.00	–	logD	0.68
O=C([O-])CN1CCN(CC(=O)[O-])CCN(CC(=O)NCC2CCC(C(=O)NC(Cc3ccc4ccccc4c3)C(=O)NCCCCC(NC(=O)NC(CCC(=O)O)C(=O)O)C(=O)O)CC2)CCN(CC(=O)[O-])CC1.[44Sc+3] (centres unmarked)	transchelation stability	–	24 h, 37 °C, with: DTPA 10 mM	–	intact complex	95.1 ± 0.8%
COc1cc(-c2nc3ccccc3s2)cc(CN(C)Cc2ccccn2)c1O	–	methanol-water	50 µM, 0.1 M NaCl	–	pKa2	6.39
COc1ccc2cc(-c3ccc(-c4ccc(C)cn4)nc3)oc2c1	TCSPC	acetonitrile	zinc-free ligand	–	radiative decay rate constant	0.49 ns⁻¹
N=C(N)NCCC[C@@H]1NC(=O)[C@H](Cc2c[nH]c3ccccc23)NC(=O)[C@@H](CC2CCCCC2)NC(=O)[C@@H]2CCCN2C(=O)[C@@H](NC(=O)CCc2ccccc2)CCCNC1=O	–	C57BL/6J mouse, spinal cord	oral, 1 mg/kg, single dose, two-compartment model	–	redistribution rate constant (K21)	0.33 h⁻¹
Cc1ccc(-c2ccc(-c3cc4sccc4o3)cn2)nc1	–	DMF	with: quinine bisulfate reference	–	fluorescence quantum yield	0.67
CNC(CC(C)C)C(=O)NC1C(=O)NC(CC(N)=O)C(=O)NC2C(=O)NC3C(=O)NC(C(=O)NC(C(=O)NCCCNC(=N)N)c4cc(O)cc(O)c4-c4cc3ccc4O)C(O)c3ccc(c(Cl)c3)Oc3cc2cc(c3OC2OC(CO)C(O)C(O)C2OC2CC(C)(NCc3ccc(-c4ccc(Cl)cc4)cc3)C(O)C(C)O2)Oc2ccc(cc2Cl)C1O (centres unmarked)	–	mice	intravenous, 50 mg/kg	–	clearance	1.5 mL/min/kg
CN(O)C(=O)CCC(=O)NCCCN(CCCCN(CCCNC(=O)CCC(=O)N(C)O)C(=O)CCC(=O)N(C)O)C(=O)CCC(=O)N(C)O.[89Zr]	–	BALB/c mice, kidney	dose not given, 24 h vs 1 h	–	kidney activity decrease factor	7.5
COc1cc(C)c(Cc2ccc(O)cc2)cc1[C@@H]1S[C@H](CO)[C@@H](O)[C@H](O)[C@H]1O	–	Japanese T2DM patients, urine	5 mg luseogliflozin, day 7, once daily	baseline: dose	urinary excretion 0-24 h	11.6 ± 2.49%
CCc1cc(Nc2nc(-c3ccc(-n4cnc(C)c4)c(F)c3)cs2)c(C)cc1C	–	human, both sexes, plasma	oral, 200 mg once daily, day 14, multiple dose, geometric mean	–	terminal elimination rate constant	2.22e-05 s⁻¹
